Measured values pooled from the literature.
Compare with care: the assays were run in different laboratories. Values joined by “and” are separate records of one study, mostly repeats; a detail may differ. ± gives the spread as reported.

SMILES = N#Cc1ccc2c(-c3ccncc3)c(-c3ccc(F)cc3)nn2c1; test = kinase binding, competitor, MIB/MS competition, refers to: RIM11; system = Candida albicans cell lysate; conditions = 1 µM; scale = baseline: DMSO; quantity = log2 fold change; value = -0.13
SMILES = O=C(O)c1cc(Cl)ccc1S(=O)(=O)NCCCCN1C(=O)c2cccc3cccc(c23)C1=O; system = mouse small intestinal enteroids; conditions = concentration not given, applied post-irradiation; quantity = enteroid survival; value = no effect
SMILES = CC(C)[C@H](NC(=O)[C@H](Cc1ccc(O)cc1)NC(=O)[C@H](Cc1ccc(O)cc1)NC(=O)[C@@H]1CCCN1C(=O)[C@H](CCC(=O)O)NC(=O)[C@H](CCC(=O)O)NC(=O)[C@H](Cc1c[nH]c2ccccc12)NC(=O)[C@@H]1CCCN1C(=O)[C@@H](NC(=O)[C@H](CCC(N)=O)NC(=O)c1ccc2c(c1)C(=O)OC21c2ccc(O)cc2Oc2cc(O)ccc21)C(C)C)C(=O)N[C@H](C(=O)N[C@@H](CCCCN)C(=O)N[C@@H](CCCCN)C(=O)N[C@@H](CO)C(=O)N[C@@H](CO)C(=O)NCC(=O)NCC(N)=O)C(C)C; test = nerve penetration depth; system = human head and neck surgery, nerves; conditions = 500 mg, not improved; scale = baseline: white light; quantity = share of responses; value = 53.8%
SMILES = CC(C)C[C@H](NC(=O)[C@H](CC(C)C)NC(=O)[C@H](Cc1c[nH]c2ccccc12)NC(=O)[C@H](CCC(=O)O)NC(=O)[C@@H](NC(=O)[C@H](Cc1ccccc1)NC(=O)[C@H](CCC(=O)O)NC(=O)[C@H](CCCCNC(=O)COCCOCCNC(=O)COCCOCCNC(=O)CC[C@H](NC(=O)CCCCCCCCCCCCCCCCCCC(=O)O)C(=O)O)NC(=O)[C@H](C)NC(=O)[C@H](CCCCN)NC(=O)[C@H](CCCCN)NC(=O)[C@H](CCC(=O)O)NC(=O)[C@H](CC(=O)O)NC(=O)[C@H](CC(C)C)NC(=O)[C@H](Cc1ccc(O)cc1)NC(=O)[C@H](CCCCN)NC(=O)[C@H](CO)NC(=O)[C@H](Cc1ccc(O)cc1)NC(=O)[C@H](CC(=O)O)NC(=O)[C@H](CO)NC(=O)[C@@H](NC(=O)[C@H](Cc1ccccc1)NC(=O)[C@@H](NC(=O)CNC(=O)[C@H](CCC(N)=O)NC(=O)C(C)(C)NC(=O)[C@@H](N)Cc1c[nH]cn1)[C@@H](C)O)[C@@H](C)O)C(C)C)C(=O)N[C@@H](CCC(=O)O)C(=O)NCC(=O)NCC(=O)N1CCC[C@H]1C(=O)N[C@@H](CO)C(=O)N[C@@H](CO)C(=O)NCC(N)=O; test = refers to: glucagon; system = human, fasting plasma; conditions = day 134, LS mean; scale = baseline: baseline; quantity = change from baseline; value = -14.1 pmol/L
SMILES = CC(C)NCC(O)c1ccc(O)c(O)c1 (centres unmarked); system = ventricular cardiomyocytes, C57BL/6 mouse; conditions = dose not given, 0.416 s; quantity = sarcomere length; value = 1.72 µm
SMILES = CN(C(=O)n1cnc(-c2ccc[n+]([O-])c2)c1)C1CCCCC1; test = refers to: LEA; system = human, plasma; conditions = 10 mg single dose; quantity = AUC(0-t); value = 310 ng·h/mL
SMILES = OC(CCN1CCCCC1)(c1ccccc1)C1CC2C=CC1C2 (centres unmarked); test = resting-state EEG; system = healthy elderly humans; conditions = oral, 4 mg, eyes open, LS mean; scale = baseline: baseline; quantity = change in EEG Alpha2-power Pz-O2; value = 28.3%
SMILES = Cn1cc(Nc2nccc(-c3ccc4c(c3)CN(C3COC3)CC[C@H]4NC(=O)c3cn(C(C)(C)C)nn3)n2)cn1; test = refers to: Oxidative Ethanol Degradation III; system = splenic B cells, Mus musculus; conditions = 30 mg/kg, added: IgD activation; scale = baseline: vehicle, direction not given; quantity = pathway activation z-score; value = 2.24
SMILES = Cc1cc(C)c(CNC(=O)c2cc(Cl)c3c(c2C)O[C@@](C)([C@H]2CC[C@H](N(C)C)CC2)O3)c(=O)[nH]1; test = IWG 2007 criteria; system = human, relapsed/refractory angioimmunoblastic T-cell lymphoma; conditions = dose not given; quantity = best overall response PD; value = 23%
SMILES = Cn1cc([C@H]2C[C@H]3CSC(N)=N[C@@]3(c3ccc(F)cc3F)CO2)cn1; test = refers to: Aβx-42; system = Mus musculus wild-type, brain; conditions = subcutaneous, 50 mg/kg, 18 h; quantity = Aβ42 level; value = 0.51 ng/g
SMILES = O=P(O)(O)C(Cl)(Cl)P(=O)(O)O; test = immunostaining; system = mouse, sham-operated, meninges; conditions = dose not given, day 7; scale = baseline: total area; quantity = Iba1-positive area; value = 0.54%
SMILES = Cc1cc2nc3c(=O)[nH]c(=O)nc-3n(C[C@H](O)[C@H](O)[C@H](O)COP(=O)(O)O)c2cc1C; test = binding, equilibrium dialysis LC-MS; conditions = 5 µM, thermostabilized A2AR-BRIL construct; scale = baseline: no-protein control, direction not given; quantity = z-scored log2 fold change; value = -0.188
SMILES = CN(C)C(=O)Oc1cccc([N+](C)(C)C)c1; test = neuromuscular block reversal; system = rat; conditions = dose not given, 12 (unit not given), added: cisatracurium; scale = baseline: T1 twitch; quantity = train-of-four ratio; value = 89
SMILES = O=C(O)CCCC(=O)O; test = binding, equilibrium dialysis LC-MS; conditions = 5 µM, thermostabilized A2AR-BRIL construct; scale = baseline: no-protein control, direction not given; quantity = z-scored log2 fold change; value = -0.286
SMILES = c1ccc(-c2n[nH]cc2-c2ccnc3ccccc23)nc1; test = kinase binding, competitor, MIB/MS competition, refers to: CMK1; system = Candida albicans cell lysate; conditions = 100 nM; scale = baseline: DMSO; quantity = log2 fold change; value = 1.39
SMILES = OC[C@H]1O[C@@H](O[C@H]2[C@H](O)[C@@H](O)[C@H](O)O[C@@H]2CO)[C@H](O)[C@@H](O)[C@H]1O; test = binding, equilibrium dialysis LC-MS; conditions = 5 µM, thermostabilized A2AR-BRIL construct; scale = baseline: no-protein control, direction not given; quantity = z-scored log2 fold change; value = 0.272
SMILES = CO[C@H]1CC[C@H](N2C(=O)CNc3ncc(-c4ccc(C(C)(C)O)nc4)nc32)CC1; test = flow cytometry; system = stimulated monocytes, human, blood; conditions = 30 mg single dose, 24 h, median; scale = baseline: baseline; quantity = pAKT change from baseline; value = -42.7%
SMILES = O=C1C[C@@H](C(=O)O)NC(=O)N1; test = binding, equilibrium dialysis LC-MS; conditions = 5 µM, thermostabilized A2AR-BRIL construct; scale = baseline: no-protein control, direction not given; quantity = z-scored log2 fold change; value = -0.848
SMILES = N#CCc1ccc(O)c(Cc2ccc(O)cc2)c1; test = DPPH radical; conditions = 300 µg/mL; quantity = radical scavenging; value = 17.51 ± 0.13%
SMILES = COc1ccc(-c2cncc(N[C@@H](C)c3cccc(NC(=O)c4cncc(C)c4)c3)n2)cc1OC; test = refers to: rno-miR-340-5p; system = rat SU5416/hypoxia model, lung; conditions = dose not given; scale = baseline: SU5416/hypoxia vehicle; quantity = fold change; value = 0.688
SMILES = C=CCn1c(=O)c2cnc(Nc3ccc(N4CCN(C)CC4)cc3)nc2n1-c1ccc2c(n1)[C@@](O)(CC)CC2; system = SK-MES-1 xenograft, BALB/c nude mice; conditions = oral, 80 mg/kg once daily x 22, day 21; quantity = tumour volume difference; value = 696 ± 22.3 mm3
SMILES = C[C@@H](O)CCOC(=O)C[C@@H](C)O; test = refers to: C7-DC acylcarnitine; system = human, plasma; conditions = 60 min, log2-transformed values; quantity = metabolite level; value = -5.5 ± 0.6 µmol/L
SMILES = C[C@H]1C[C@H]2CSC(N)=N[C@@]2(c2nc(NC(=O)c3ccc(OC(F)F)cn3)cs2)CO1; test = refers to: Aβ1-40; system = healthy adults, plasma; conditions = 200 mg single dose, 24 h post-dose; scale = baseline: placebo; quantity = percent change from baseline; value = -90.2%
SMILES = C[C@H](Oc1ccc(Br)cc1-c1ccon1)C(=O)O; test = peak grip force, handgrip dynamometry; system = healthy human; conditions = 800 mg, SAD; quantity = difference from placebo; value = -1.29 kg
SMILES = CC(C)(CO)[C@@H](O)C(=O)NCCC(=O)O; test = binding, equilibrium dialysis LC-MS; conditions = 5 µM, thermostabilized A2AR-BRIL construct; scale = baseline: no-protein control, direction not given; quantity = z-scored log2 fold change; value = 0.169
SMILES = CC(C)(C)c1ccc(/C=C/C(=O)Nc2ccc3c(c2)OCCO3)cc1; test = nociceptive behaviour; system = mouse; conditions = intraplantar, 10 µg, added: capsaicin 1.6 µg; quantity = licking duration; value = 3.7 ± 1.7 s
SMILES = CC(c1cc2ccccc2s1)N(O)C(N)=O (centres unmarked); test = refers to: PGE2; system = human blood; conditions = 3 µM, added: Escherichia coli stimulation; quantity = lipid mediator level; value = 706 ± 395 pg/mL blood
SMILES = CC(=O)NCCc1c(Cc2ccccc2)[nH]c2ccccc12; system = C3H/HeN mice, wild type; conditions = subcutaneous, 300 µg/mouse; quantity = days to re-entrainment; value = 10.6 ± 1.1 days
SMILES = CCOC(=O)NCc1ccc(O)cc1; test = ABTS radical; conditions = 300 µg/mL; quantity = radical scavenging; value = 50.7 ± 1.19%
SMILES = COC(=O)CCc1ccc(OCC(O)CNC(C)C)cc1 (centres unmarked); system = healthy male humans; conditions = concentration not given, 5 min, added: saline; quantity = diastolic blood pressure; value = 61.4 mm Hg
SMILES = CC(C)[C@H](N)C(=O)O; test = binding, equilibrium dialysis LC-MS; conditions = 5 µM, thermostabilized A2AR-BRIL construct; scale = baseline: no-protein control, direction not given; quantity = z-scored log2 fold change; value = 0.43
SMILES = N#Cc1ccc2c(c1)[C@H]1CCCN(C(=O)c3ccc4[nH]cnc4c3)[C@H]1C2; test = refers to: systolic blood pressure; system = human; conditions = 240 mg once daily, day 28, adjusted mean; scale = baseline: placebo; quantity = change from baseline; value = 0.4 mmHg
SMILES = CC1(C)CCC(c2ccc(Cl)cc2)=C(CN2CCN(c3ccc(C(=O)NS(=O)(=O)c4ccc(N[C@H](CCN5CCOCC5)CSc5ccccc5)c(S(=O)(=O)C(F)(F)F)c4)cc3)CC2)C1; test = cell killing; system = canine blood CD3+ T cells, dog 33; conditions = 24 h; quantity = EC50; value = 118 nM
SMILES = N[C@H](CO)C(=O)O; test = binding, equilibrium dialysis LC-MS; conditions = 5 µM, thermostabilized A2AR-BRIL construct; scale = baseline: no-protein control, direction not given; quantity = z-scored log2 fold change; value = 0.282
SMILES = CC(=O)Oc1cc2c(s1)CCN(C(C(=O)C1CC1)c1ccccc1F)C2 (centres unmarked); test = platelet aggregation, light transmission aggregometry; system = human patients, platelet-rich plasma; conditions = dose not given, 3 h, added: TRAP 5 µM; quantity = patients with IPA above 80%; value = 9.5%
SMILES = COc1ncc(-c2nc3c(n2C(C)C)[C@H](c2ccc(Cl)cc2)N(c2cc(Cl)cn(C)c2=O)C3=O)c(OC)n1; test = International Working Group criteria; system = human acute myeloid leukemia patients; conditions = dose not given, response Unknown, all patients; quantity = best overall response; value = 3.3%
SMILES = NC(=O)c1cnc2[nH]ccc2c1N[C@@H]1[C@@H]2CC3C[C@H]1C[C@@](O)(C3)C2; test = flow cytometry, refers to: CD4+ naive T cells; system = Japanese healthy subjects, peripheral blood; conditions = oral, 100 mg twice daily, day 4; quantity = change from baseline; value = -2.73%
SMILES = FC(F)(F)Oc1cccc(-c2cnc3ccc(-c4ccncc4)nn23)c1; test = bioluminescence imaging; system = mouse, MDA-MB-231-Luc xenograft; conditions = 10 mg/kg, day 21; quantity = tumour bioluminescence; value = 6.63e+10 photons/s and 2.43e+10 photons/s and 9.05e+10 photons/s and 5.24e+10 photons/s and 6.26e+10 photons/s and 2.24e+10 photons/s
SMILES = COCCOC(=O)C1=C(C)NC(C)=C(C(=O)OC(C)C)C1c1cccc([N+](=O)[O-])c1 (centres unmarked); test = whole-cell current clamp; system = DRG neurons, naive rat; conditions = dose not given, 4 h; quantity = action potential threshold; value = -38.9 mV and -17.2 mV and -30.8 mV and -31 mV and -21.7 mV and -37.6 mV
SMILES = CCN1CCN(Cc2ccc(Nc3ncc(F)c(-c4cc(F)c5nc6n(c5c4)[C@H](C)CCC6)n3)nc2)CC1; system = human advanced solid tumours; conditions = 50 mg, phase Ia monotherapy RECIST 1.1; quantity = objective response rate; value = 0%
SMILES = O=C(c1ccc(OCCN2CCCCC2)cc1)c1c(-c2ccc(O)cc2)sc2cc(O)ccc12; system = male ICR-CD1 mice; conditions = intracerebroventricular, 100 µg/animal, no acetic acid; quantity = writhing count; value = 0
SMILES = N#Cc1ccn2c(-c3ccncc3)c(-c3ccc(F)cc3)nc2c1; test = kinase binding, competitor, MIB/MS competition, refers to: NIK1; system = Candida albicans cell lysate; conditions = 100 nM; scale = baseline: DMSO; quantity = log2 fold change; value = -0.468
SMILES = COc1cc2cc(-c3ccc(CC(=O)Nc4cc(C(C)(C)C(F)(F)F)no4)cn3)cnc2cc1OC; test = RECIST v1.1; system = human other RET-altered solid tumours; conditions = 75 mg, phase I; quantity = best overall response PR; value = 10%
SMILES = CC(C)C[C@H](N)C(=O)O; test = binding, equilibrium dialysis LC-MS; conditions = 5 µM, thermostabilized A2AR-BRIL construct; scale = baseline: no-protein control, direction not given; quantity = z-scored log2 fold change; value = 0.152
SMILES = O=C(O)CNC(=O)Cc1ccccc1; system = ventricular cardiomyocytes, C57BL/6 mouse; conditions = dose not given, 0.856 s; quantity = sarcomere length; value = 1.62 µm
SMILES = Oc1ccc(Br)cc1C=NCCN1CCOCC1; test = nitric oxide scavenging; conditions = 40 µM; quantity = inhibition; value = 10.7%
SMILES = CN(C)C(=O)c1cc2cnc(Nc3ccc(N4CCNCC4)cn3)nc2n1C1CCCC1; test = RNA-seq GSEA, refers to: HALLMARK_APICAL_JUNCTION; system = MB002 tumour; conditions = concentration not given, in vivo; scale = baseline: vehicle, direction not given; quantity = normalized enrichment score; value = -1.05
